{"data": "Results of several laboratories", "note": "Lines come from different studies, so protocols differ."}
{"Compound": "CCCCCCCCCCCCCCCC(=O)N[C@@H](CCC(=O)NCCOCCOCCC(=O)NCCOCCOCCC(=O)NCCCC[C@H](NC(=O)[C@H](CC(=O)O)NC(=O)[C@H](CC(C)C)NC(=O)[C@H](Cc1ccc(O)cc1)NC(=O)[C@H](CCCCN)NC(=O)[C@H](CO)NC(=O)[C@H](Cc1ccc(O)cc1)NC(=O)[C@H](CC(=O)O)NC(=O)[C@H](CO)NC(=O)[C@@H](NC(=O)[C@H](Cc1ccccc1)NC(=O)[C@@H](NC(=O)CNC(=O)[C@H](CCC(N)=O)NC(=O)[C@@H](CO)NC(=O)[C@@H](N)Cc1c[nH]cn1)[C@@H](C)O)[C@@H](C)O)C(=O)N[C@@H](CCCNC(=N)N)C(=O)N[C@@H](CCCNC(=N)N)C(=O)N[C@@H](C)C(=O)N[C@@H](CCC(N)=O)C(=O)N[C@@H](CC(=O)O)C(=O)N[C@@H](Cc1ccccc1)C(=O)N[C@H](C(=O)N[C@@H](CCC(N)=O)C(=O)N[C@@H](Cc1c[nH]c2ccccc12)C(=O)N[C@@H](CC(C)C)C(=O)N[C@@H](CC(C)C)C(=O)N[C@@H](CC(N)=O)C(=O)N[C@H](C(=O)NCC(=O)NCC(=O)N1CCC[C@H]1C(=O)N[C@@H](CO)C(=O)N[C@@H](CO)C(=O)NCC(=O)N[C@@H](C)C(=O)N1CCC[C@H]1C(=O)N1CCC[C@H]1C(=O)N1CCC[C@H]1C(=O)N[C@@H](CO)C(N)=O)[C@@H](C)O)C(C)C)C(=O)O", "test system": "rhesus monkey, male, plasma", "conditions": "subcutaneous, 60 µg/kg, day 1, toxicokinetics, mean", "quantity": "Cmax", "result": "91.7 ng/mL"}
{"Compound": "CC(C)(C)OC(=O)NCCC[C@H](NC(=O)c1ccc(NCc2ccc3nc(N)nc(N)c3c2Cl)cc1)C(=O)O", "tested on": "Mycobacterium tuberculosis", "test system": "pptH knockout", "quantity": "MIC", "result": "< 0.2 µM"}
{"Compound": "CN[C@@H]1[C@H](O)[C@H](NC)[C@H]2O[C@]3(O)[C@H](O[C@@H]2[C@H]1O)O[C@H](C)C[C@H]3NC(=O)Cc1ccccc1", "tested on": "Mycobacterium tuberculosis", "quantity": "MIC", "result": "0.75 to 1.5 µg/mL"}
{"Compound": "CNC1C(O)C(NC)C2OC3(O)C(OC(C)C[C@H]3NC(=O)Cc3ccccc3)OC2C1O.Cl.Cl (stereo partly shown)", "tested on": "Mycobacterium tuberculosis", "test system": "H37Rv Rv1258c knockout, 7H9 broth", "conditions": "7 days", "quantity": "MIC", "result": "1.6 µg/mL"}
{"Compound": "N=C1C(=Cc2ccc(SCc3ccc(Cl)cc3)o2)C(=O)N=C2SC(c3cccs3)=NN12", "tested on": "Mycobacterium tuberculosis", "assay": "resazurin", "test system": "rel knockout", "conditions": "168 h, nutrient-starved", "quantity": "IC50", "result": "> 128 µM"}
{"Compound": "Cc1nc(=O)c2cc(CN(C)c3cccc(C(=O)N[C@@]4(C(=O)O)CCC[C@H](C(=O)O)C4)c3)ccc2[nH]1", "tested on": "Mycobacterium tuberculosis", "test system": "pptH knockout", "quantity": "MIC", "result": "27 µM"}
{"Compound": "Cc1ccc(C(=O)OC(C)C)c(N2CCN(Cc3ccccc3OC(F)F)CC2)n1", "tested on": "Mycobacterium tuberculosis", "assay": "resazurin", "test system": "rel knockout", "conditions": "168 h, nutrient-starved", "quantity": "IC50", "result": "> 64 µM"}
{"Compound": "CN[C@@H]1[C@H](O)[C@H](NC)[C@H]2O[C@]3(O)[C@H](O[C@@H]2[C@H]1O)O[C@H](C)C[C@H]3NC(=O)Cc1ccc(F)cn1", "tested on": "Mycobacterium tuberculosis", "quantity": "MIC", "result": "1.6 µg/mL"}
{"Compound": "COC(=O)[C@H](CCCNC(=O)OC(C)(C)C)NC(=O)c1ccc(NCc2ccc3nc(N)nc(N)c3c2Cl)cc1", "tested on": "Mycobacterium tuberculosis", "test system": "pptH knockout", "quantity": "MIC", "result": "< 0.1 µM"}
{"Compound": "Br.Br.Br.CNC1C(O)C(NC)C2OC3(O)C(OC(C)C[C@H]3NC(=O)Cc3ccccn3)OC2C1O (stereo partly shown)", "tested on": "Mycobacterium tuberculosis", "test system": "H37Rv Rv1258c knockout, 7H9 broth", "conditions": "7 days", "quantity": "MIC", "result": "3.1 µg/mL"}
{"Compound": "CCC1=NN2C(=N)C(=Cc3ccc(Sc4ccc(C)cc4)o3)C(=O)N=C2S1", "tested on": "Mycobacterium tuberculosis", "assay": "resazurin", "test system": "rel knockout", "conditions": "168 h, nutrient-starved", "quantity": "IC50", "result": "16 µM"}
{"Compound": "CNC1C(O)C(NC)C2OC3(O)C(OC(C)C[C@H]3NC(=O)Cc3ccc(F)cn3)OC2C1O.Cl.Cl (stereo partly shown)", "tested on": "Mycobacterium tuberculosis", "test system": "H37Rv Rv1258c knockout, 7H9 broth", "conditions": "7 days", "quantity": "MIC", "result": "3.1 µg/mL"}
{"Compound": "CN[C@@H]1[C@H](O)[C@H](NC)[C@H]2O[C@]3(O)[C@H](O[C@@H]2[C@H]1O)O[C@H](C)C[C@H]3NC(=O)CNC(C)(C)C", "tested on": "Mycobacterium tuberculosis", "quantity": "MIC", "result": "3.12 µg/mL"}
{"note": "A few entries again:"}
{"Compound": "CN[C@@H]1[C@H](O)[C@H](NC)[C@H]2O[C@]3(O)[C@H](O[C@@H]2[C@H]1O)O[C@H](C)C[C@H]3NC(=O)Cc1ccccc1", "tested on": "Mycobacterium tuberculosis", "quantity": "MIC", "result": "0.75 to 1.5 µg/mL"}
{"Compound": "CNC1C(O)C(NC)C2OC3(O)C(OC(C)C[C@H]3NC(=O)Cc3ccccc3)OC2C1O.Cl.Cl (stereo partly shown)", "tested on": "Mycobacterium tuberculosis", "test system": "H37Rv Rv1258c knockout, 7H9 broth", "conditions": "7 days", "quantity": "MIC", "result": "1.6 µg/mL"}
